Published values gathered from unrelated publications.
Each line is one published result; not all experiments were run side by side. “And” joins repeats or separate records; there may be more than shown. Numbers after ± are the reported error.
Uridine nucleoside ribohydrolase: Uridine nucleoside ribohydrolase (Trichomonas vaginalis, UniProt A2FTT0)
MMP2: 72 kDa type IV collagenase (MMP2, Homo sapiens, UniProt P08253)
HDAC6: Protein deacetylase HDAC6 (HDAC6, Homo sapiens, UniProt Q9UBN7)
UniProt Q9UBN7, sequence (whole entry, looked up): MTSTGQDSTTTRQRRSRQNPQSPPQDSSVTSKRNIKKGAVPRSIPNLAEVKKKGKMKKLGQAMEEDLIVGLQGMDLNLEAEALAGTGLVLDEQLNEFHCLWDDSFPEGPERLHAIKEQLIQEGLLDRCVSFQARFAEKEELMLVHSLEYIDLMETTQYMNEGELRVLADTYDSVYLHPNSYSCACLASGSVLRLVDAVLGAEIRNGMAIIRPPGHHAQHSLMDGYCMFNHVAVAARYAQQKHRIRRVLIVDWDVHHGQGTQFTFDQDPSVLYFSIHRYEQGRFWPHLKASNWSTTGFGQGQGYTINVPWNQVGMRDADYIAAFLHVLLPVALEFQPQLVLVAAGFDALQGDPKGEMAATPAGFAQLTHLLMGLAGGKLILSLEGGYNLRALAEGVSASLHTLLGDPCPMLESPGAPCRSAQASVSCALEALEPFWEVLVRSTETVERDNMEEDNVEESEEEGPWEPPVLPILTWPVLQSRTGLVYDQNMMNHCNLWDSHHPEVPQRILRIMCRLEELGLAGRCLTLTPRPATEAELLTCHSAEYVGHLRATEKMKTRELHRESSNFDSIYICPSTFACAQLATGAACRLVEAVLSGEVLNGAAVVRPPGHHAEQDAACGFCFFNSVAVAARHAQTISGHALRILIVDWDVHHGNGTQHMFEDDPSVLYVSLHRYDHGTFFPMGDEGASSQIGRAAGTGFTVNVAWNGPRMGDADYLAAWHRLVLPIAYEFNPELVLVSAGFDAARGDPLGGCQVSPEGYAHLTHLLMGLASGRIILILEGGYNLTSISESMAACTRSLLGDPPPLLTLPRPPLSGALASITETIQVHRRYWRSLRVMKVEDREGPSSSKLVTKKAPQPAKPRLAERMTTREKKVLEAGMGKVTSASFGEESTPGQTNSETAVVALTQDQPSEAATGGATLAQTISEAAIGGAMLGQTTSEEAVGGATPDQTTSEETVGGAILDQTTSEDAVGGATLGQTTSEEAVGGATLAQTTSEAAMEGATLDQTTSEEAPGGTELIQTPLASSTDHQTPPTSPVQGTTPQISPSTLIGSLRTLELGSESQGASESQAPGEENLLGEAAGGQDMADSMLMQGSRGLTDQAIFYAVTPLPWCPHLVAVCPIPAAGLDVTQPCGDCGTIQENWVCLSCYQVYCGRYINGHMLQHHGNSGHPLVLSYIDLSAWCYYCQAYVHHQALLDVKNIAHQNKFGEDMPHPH
TNKS2: Poly [ADP-ribose] polymerase tankyrase-2 (TNKS2, Homo sapiens, UniProt Q9H2K2)
UniProt Q9H2K2, sequence (whole entry, looked up): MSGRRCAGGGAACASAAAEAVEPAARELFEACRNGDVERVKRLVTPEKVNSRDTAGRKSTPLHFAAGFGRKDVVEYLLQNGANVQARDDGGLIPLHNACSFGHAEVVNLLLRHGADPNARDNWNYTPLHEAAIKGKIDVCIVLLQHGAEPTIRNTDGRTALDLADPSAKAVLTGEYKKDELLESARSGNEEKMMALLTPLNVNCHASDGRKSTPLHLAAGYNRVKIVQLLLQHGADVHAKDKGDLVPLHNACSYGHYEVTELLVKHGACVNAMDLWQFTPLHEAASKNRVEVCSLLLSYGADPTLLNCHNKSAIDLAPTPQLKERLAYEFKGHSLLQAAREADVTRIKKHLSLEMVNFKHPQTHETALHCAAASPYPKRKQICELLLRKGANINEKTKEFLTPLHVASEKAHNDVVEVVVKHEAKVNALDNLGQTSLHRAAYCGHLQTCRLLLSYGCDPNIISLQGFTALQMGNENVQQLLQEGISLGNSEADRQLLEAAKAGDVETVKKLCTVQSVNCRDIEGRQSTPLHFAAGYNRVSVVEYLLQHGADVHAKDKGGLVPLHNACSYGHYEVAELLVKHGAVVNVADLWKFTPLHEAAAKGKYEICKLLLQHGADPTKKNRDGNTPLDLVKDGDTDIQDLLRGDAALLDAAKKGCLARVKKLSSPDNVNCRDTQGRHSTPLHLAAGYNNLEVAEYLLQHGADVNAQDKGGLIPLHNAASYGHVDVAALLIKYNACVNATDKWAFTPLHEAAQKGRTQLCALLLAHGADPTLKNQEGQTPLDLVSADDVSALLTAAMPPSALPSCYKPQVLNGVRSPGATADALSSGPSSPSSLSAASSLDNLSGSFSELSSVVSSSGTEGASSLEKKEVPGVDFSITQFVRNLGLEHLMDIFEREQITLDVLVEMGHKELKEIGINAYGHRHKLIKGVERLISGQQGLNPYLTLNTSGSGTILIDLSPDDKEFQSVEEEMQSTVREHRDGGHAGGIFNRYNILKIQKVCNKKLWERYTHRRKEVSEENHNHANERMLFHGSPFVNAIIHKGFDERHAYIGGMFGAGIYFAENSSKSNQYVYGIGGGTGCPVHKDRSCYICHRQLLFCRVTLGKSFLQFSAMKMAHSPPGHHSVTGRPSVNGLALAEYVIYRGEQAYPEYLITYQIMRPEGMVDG
Alpha-amylase: Alpha-amylase (Bos taurus, UniProt Q3MHH8)
HTR1D: 5-hydroxytryptamine receptor 1D (HTR1D, Homo sapiens, UniProt P28221)
UniProt P28221, sequence (whole entry, looked up): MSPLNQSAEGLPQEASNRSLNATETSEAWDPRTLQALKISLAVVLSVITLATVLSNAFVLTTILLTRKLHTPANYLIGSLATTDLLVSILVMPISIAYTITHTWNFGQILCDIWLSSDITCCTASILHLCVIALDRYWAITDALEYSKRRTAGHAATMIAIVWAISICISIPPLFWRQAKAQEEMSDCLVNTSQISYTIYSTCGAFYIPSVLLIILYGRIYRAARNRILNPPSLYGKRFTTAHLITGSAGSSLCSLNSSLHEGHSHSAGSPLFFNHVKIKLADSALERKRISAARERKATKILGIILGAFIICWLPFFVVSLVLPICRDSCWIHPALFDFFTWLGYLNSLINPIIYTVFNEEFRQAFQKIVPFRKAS
ERN2: Serine/threonine-protein kinase/endoribonuclease IRE2 (ERN2, Homo sapiens, UniProt Q76MJ5)
UniProt Q76MJ5, sequence (whole entry, looked up): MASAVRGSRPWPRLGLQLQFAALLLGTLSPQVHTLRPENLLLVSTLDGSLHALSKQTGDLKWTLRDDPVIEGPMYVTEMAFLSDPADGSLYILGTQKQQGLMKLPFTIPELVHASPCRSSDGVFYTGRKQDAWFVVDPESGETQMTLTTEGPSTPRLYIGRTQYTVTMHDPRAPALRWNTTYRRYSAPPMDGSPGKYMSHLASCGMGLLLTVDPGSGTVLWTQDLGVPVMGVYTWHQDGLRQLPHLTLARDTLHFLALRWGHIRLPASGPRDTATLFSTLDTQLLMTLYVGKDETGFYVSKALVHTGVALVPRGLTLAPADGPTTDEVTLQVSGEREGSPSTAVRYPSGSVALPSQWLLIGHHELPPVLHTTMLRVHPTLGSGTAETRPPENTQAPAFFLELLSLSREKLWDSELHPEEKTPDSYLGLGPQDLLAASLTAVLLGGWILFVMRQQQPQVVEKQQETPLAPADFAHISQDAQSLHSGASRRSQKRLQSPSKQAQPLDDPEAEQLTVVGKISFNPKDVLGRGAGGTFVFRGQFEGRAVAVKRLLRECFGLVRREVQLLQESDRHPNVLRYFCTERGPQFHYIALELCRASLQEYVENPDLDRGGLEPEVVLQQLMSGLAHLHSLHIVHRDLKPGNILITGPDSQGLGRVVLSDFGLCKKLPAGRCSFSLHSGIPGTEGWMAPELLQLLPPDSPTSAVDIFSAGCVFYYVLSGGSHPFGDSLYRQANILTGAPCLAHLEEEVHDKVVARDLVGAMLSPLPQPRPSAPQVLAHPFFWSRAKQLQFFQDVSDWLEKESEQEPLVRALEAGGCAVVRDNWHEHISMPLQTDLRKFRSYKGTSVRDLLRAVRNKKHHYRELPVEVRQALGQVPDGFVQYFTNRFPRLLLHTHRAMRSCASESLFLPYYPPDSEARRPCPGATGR
UniProt Q93009, sequence (whole entry, looked up): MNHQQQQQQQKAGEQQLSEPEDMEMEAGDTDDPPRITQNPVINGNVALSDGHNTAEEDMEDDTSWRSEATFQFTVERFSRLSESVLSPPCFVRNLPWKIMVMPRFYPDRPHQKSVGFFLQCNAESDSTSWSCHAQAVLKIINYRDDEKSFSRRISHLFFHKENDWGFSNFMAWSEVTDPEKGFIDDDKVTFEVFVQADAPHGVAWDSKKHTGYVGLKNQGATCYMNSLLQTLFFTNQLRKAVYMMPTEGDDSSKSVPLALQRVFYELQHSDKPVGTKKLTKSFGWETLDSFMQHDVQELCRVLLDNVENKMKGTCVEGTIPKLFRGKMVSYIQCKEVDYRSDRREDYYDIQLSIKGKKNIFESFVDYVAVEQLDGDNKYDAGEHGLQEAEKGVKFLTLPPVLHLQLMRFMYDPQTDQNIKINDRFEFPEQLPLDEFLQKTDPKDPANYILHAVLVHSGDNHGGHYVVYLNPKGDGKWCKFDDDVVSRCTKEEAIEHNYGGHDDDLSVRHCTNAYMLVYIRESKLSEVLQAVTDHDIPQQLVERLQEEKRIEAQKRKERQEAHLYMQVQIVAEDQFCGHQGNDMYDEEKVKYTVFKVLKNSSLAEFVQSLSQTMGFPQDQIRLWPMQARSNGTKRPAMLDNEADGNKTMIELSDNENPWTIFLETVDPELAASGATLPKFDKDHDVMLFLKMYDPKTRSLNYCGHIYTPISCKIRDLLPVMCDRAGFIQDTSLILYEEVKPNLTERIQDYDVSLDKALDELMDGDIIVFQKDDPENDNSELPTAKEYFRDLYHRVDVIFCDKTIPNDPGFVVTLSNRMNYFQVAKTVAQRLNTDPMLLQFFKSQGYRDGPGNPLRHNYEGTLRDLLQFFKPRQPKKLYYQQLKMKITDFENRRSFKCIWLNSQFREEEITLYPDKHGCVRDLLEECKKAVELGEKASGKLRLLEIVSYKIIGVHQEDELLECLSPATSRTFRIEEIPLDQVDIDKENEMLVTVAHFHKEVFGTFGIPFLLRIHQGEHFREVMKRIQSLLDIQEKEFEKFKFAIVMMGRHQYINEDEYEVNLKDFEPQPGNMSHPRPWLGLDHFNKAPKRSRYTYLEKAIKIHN
UniProt P03772, sequence (whole entry, looked up): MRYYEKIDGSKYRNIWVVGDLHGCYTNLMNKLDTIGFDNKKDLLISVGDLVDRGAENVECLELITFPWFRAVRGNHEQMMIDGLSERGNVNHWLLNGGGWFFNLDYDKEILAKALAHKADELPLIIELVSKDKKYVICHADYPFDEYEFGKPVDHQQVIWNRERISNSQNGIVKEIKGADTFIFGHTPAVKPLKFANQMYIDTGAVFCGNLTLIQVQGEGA

O=C(NCCCCc1ccccc1)n1c(=O)oc2cc(-c3ccc(F)cc3)ccc21 — inhibition (Phospholipase A2 group V (PLA2G5, Homo sapiens, UniProt P39877); enzyme activity, inhibitor; 10 µM): 1.1%
CN(Cc1ccc(/C=C/C(=O)NO)cc1)CC12CC3CC(CC(C3)C1)C2 — inhibition (human CB1 receptor; agonist radioligand binding; 0.05 µM): 17%
O=[N+]([O-])c1ccc(Cn2cc(Cn3cc(CO)nn3)nn2)cc1 — inhibition (Pleckstrin homology domain-containing family A member 1, PH domain (Homo sapiens, UniProt Q9HB21); PI(3,4)P2 binding to PH domain, SPR; 200 µM): 47 ± 8%
COC(=O)c1cccc2c1NC(=O)C21CC(NC(=O)OC(C)(C)C)C(=O)O1 (stereo not shown) — inhibition (D-3-phosphoglycerate dehydrogenase (PHGDH, Homo sapiens, UniProt O43175); enzyme activity, inhibitor; 25 µM): 54.4%
N=C(N)NCCCC(NC(=O)C(CC(=O)NO)Cc1ccc2ccccc2c1)C(=O)NC(Cc1c[nH]c2ccccc12)C(=O)NC(CCC(=O)O)C(N)=O (stereo not shown) — inhibition (Matrix metalloproteinase-20 (Homo sapiens, UniProt O60882); 1 µM): 2%
CCC(=O)N(C)c1ccc(Cl)c(Cl)c1 — inhibition (Type-1 angiotensin II receptor (AGTR1, Homo sapiens, UniProt P30556); ligand displacement, radioligand; 10 µM): < 10%
COc1ccc(CN2CC3CCCCN3C2=O)cc1 (stereo not shown) — inhibition (Uridine nucleoside ribohydrolase; 19F NMR; 100 µM, together with: 0.01% Triton X-100): 100%
CCn1cc(C(=O)O)c(=O)c2c(N)c(F)c(NC3CCCCC3)cc21 — inhibition (Lymphokine-activated killer T-cell-originated protein kinase (PBK, Homo sapiens, UniProt Q96KB5); kinase activity; 0.1 µM, together with: ATP at Km): 6%
O=C(CNc1nc(Cl)nc(NNC(=O)c2ccc(Nc3nc(Nc4ccc(C(=O)NNc5nc(Cl)nc(NCC(=O)NO)n5)cc4)nc(Nc4ccc(C(=O)NNc5nc(Cl)nc(NCC(=O)NO)n5)cc4)n3)cc2)n1)NO — inhibition (MMP2; enzyme activity, inhibitor, fluorescence; 0.01 µg/mL): 82%
O=C1c2sc(-c3ccc(N4CCC(F)C4)nc3F)nc2CCN1c1cccnc1 (stereo not shown) — inhibition (Corticotropin-releasing factor receptor 1 (CRHR1, Homo sapiens, UniProt P34998); ligand displacement, radioligand; 1 µM): -6%
Cc1cccnc1-c1cccc(C#N)c1 — inhibition (Uridine nucleoside ribohydrolase; 19F NMR; 100 µM, together with: 0.01% Triton X-100): 100%
Cc1c(OS(=O)(=O)Oc2ccc(C(C)C)cc2)cccc1C(=O)NO — inhibition (HDAC6; enzyme activity, inhibitor, fluorescence; 10 µM): 19%
O=C(CC1CC2CCC1C2)NCCNC(=O)Cn1c(=O)[nH]c(=O)c2ccccc21 (stereo not shown) — inhibition (TNKS2; enzyme activity, inhibitor; 5 nM): 0%
CC(=O)Nc1ccc(F)cc1-c1ccncc1 — inhibition (Uridine nucleoside ribohydrolase; 19F NMR; 100 µM): 100%
COc1ncc2nc(C)n(Cc3ncc(S(N)(=O)=O)cc3F)c2c1-c1ccccc1 — inhibition (cGMP-inhibited 3',5'-cyclic phosphodiesterase 3A (PDE3A, Homo sapiens, UniProt Q14432); enzyme activity, inhibitor; 10 µM, safety panel): -3.28%
CC(=O)Nc1ccccc1-c1ccc(O)cc1 — inhibition (Uridine nucleoside ribohydrolase; 19F NMR; 50 µM): 100%
C/C=C/C(=O)Nc1ccc2nc(NCCCCCN(C)C)nc(NCCCCCCN(C)C)c2c1 — inhibition (N-lysine methyltransferase SMYD2 (SMYD2, Homo sapiens, UniProt Q9NRG4); enzyme activity, inhibitor, radiometric; 50 µM): 63%
CC1=NN(c2ccccc2F)C(=O)/C1=N\Nc1ccc(S(N)(=O)=O)cc1 — inhibition (Alpha-amylase; enzyme activity, inhibitor, glucose oxidase; 100 µg/mL, together with: dextrin): 14.4%
O=C(CNc1nc(NNC(=O)c2ccc(Nc3nc(Nc4ccc(C(=O)NNc5nc(NCC(=O)NO)nc(N6CCCCC6)n5)cc4)nc(Nc4ccc(C(=O)NNc5nc(NCC(=O)NO)nc(N6CCCCC6)n5)cc4)n3)cc2)nc(N2CCCCC2)n1)NO — inhibition (MMP2; enzyme activity, inhibitor, fluorescence; 1e-05 µg/mL): 33%
O=C(CCCc1ccc2c(c1)OCCO2)NCCNC(=O)Cn1c(=O)[nH]c(=O)c2ccccc21 — inhibition (TNKS2; enzyme activity, inhibitor; 0.5 µM): 12%
Cc1cc(Cl)cc(-c2ccnc3cc(CN4C(=O)C5C(C4=O)C5(C)C)sc23)c1C[C@@H]1CNCCO1 (stereo partly shown) — inhibition (Ubiquitin carboxyl-terminal hydrolase 7 (USP7, Homo sapiens, UniProt Q93009); enzyme activity, inhibitor; 0.05 µM): 121% and 113%
O=C1c2sc(-c3ccc(N4CCC(CO)CC4)nc3F)nc2CCN1c1cccnc1 — inhibition (GABA-gated chloride channel; radioligand binding; 1 µM, together with: antagonist radioligand): 18%
NC(=O)C[C@H]1CCc2sc3ncnc(O[C@H]4CC[C@H](N5CCOCC5)CC4)c3c21 — inhibition (Tau-tubulin kinase 2 (TTBK2, Homo sapiens, UniProt Q6IQ55); enzyme activity, inhibitor; 10 µM): 0%
COc1ccc(CCN(C)CCCC(C#N)(c2ccc(OC)c(OC)c2)C(C)C)cc1OC (stereo not shown) — translation activity (Trypanosoma cruzi; reporter mRNA translation, inhibitor, measured: Renilla luciferase mRNA; cell-free extract; concentration not given, test 2; baseline: positive over negative control): 104%
CN1CCN(CC(=O)c2ccccc2)C1=O — inhibition (Uridine nucleoside ribohydrolase; 19F NMR; 100 µM, together with: 0.01% Triton X-100): 83.1%
O=C(Nc1ccc(C(F)F)cc1)[C@H](CC1CCCCC1)Nc1nn2c(=O)ccnc2s1 — inhibition (Serine/threonine-protein phosphatase (Escherichia phage lambda, UniProt P03772); enzyme activity, inhibitor; 10 µM): -12%
CC(C)Cn1c(SCC(=O)N2CCc3ccccc3C2)nc2cc(Cl)ccc2c1=O — inhibition (HTR1D; ligand displacement, radioligand; 10 µM): -5%
CC1=NN(c2cccc(F)c2)C(=O)/C1=N\Nc1ccc(S(N)(=O)=O)cc1 — inhibition (Alpha-amylase; enzyme activity, inhibitor, glucose oxidase; 200 µg/mL, together with: dextrin): 19.2%
CCCCCCN(O)C(=O)CCCCC[C@@H]1NC(=O)[C@H]([C@@H](C)CC)NC(=O)[C@H](Cc2ccccc2C(F)(F)F)NC(=O)CCSCc2cccc(n2)CSCCCNC1=O — inhibition (HDAC6; enzyme activity, inhibitor, fluorogenic; 30 µM): 20%
CCc1ccc(N2CCC(O)C2)cc1 (stereo not shown) — inhibition (Uridine nucleoside ribohydrolase; 19F NMR; 100 µM): 32.9%
CC(=O)C12NC(C)(C)CC1(C)C(=O)C1=C2c2c(c3c4n2C(C)(C)CC2=C4C4(CC(C)(C)NC(C)(C4)C2=O)CC3(C)C)C(=O)C(C)(C)N1 (single isomer, unassigned; (+)) — inhibition (TRPM3 (Homo sapiens, UniProt Q9HCF6); antagonist; HEK293T; 10 µM): 25.76 ± 0.09%
CC1Cc2ccccc2N1C(=O)CN1CCN(Cc2ccccc2)CC1 (stereo not shown) — inhibition (HTR1D; radioligand binding; concentration not given, together with: [3H]5-CT): 63%
Cc1cccnc1-c1ccc(C(N)=O)cc1 — inhibition (Uridine nucleoside ribohydrolase; 19F NMR; 100 µM, together with: 0.01% Triton X-100): 100%
CS(=O)(=O)Nc1cccc(-c2csc3cnc(Nc4ccc(N5CCN(CCCCCOc6cccc7c6C(=O)N(C6CCC(=O)NC6=O)C7=O)CC5)cc4)nc23)c1 (stereo not shown) — inhibition (Diacylglycerol kinase eta (DGKH, Homo sapiens, UniProt Q86XP1); probe labelling, inhibitor, KiNativ chemoproteomics; MOLT-4; 1 µM): -13.7%
C[Si](C)(C)C[C@H](CN)CC(=O)O — inhibition (Neuropeptide Y receptor type 2 (NPY2R, Homo sapiens, UniProt P49146); ligand displacement, radioligand; 250 µM): 3%
Cc1cc(OS(=O)(=O)Oc2ccccc2-c2ccccc2)cc(C(=O)NO)c1 — inhibition (HDAC6; enzyme activity, inhibitor, fluorescence; 10 µM): 40%
CN1CCN(Cc2ccc(-c3ccc(CO[C@H]4CCC[C@@H]4NC(=O)c4cc(-c5cnn(C)c5)cnc4N)cc3)cc2)CC1 — inhibition (ERN2; enzyme activity, inhibitor; 0.1 µM): 2%
c1ccc(OC[C@H]2CN(CCN3CCc4ccccc43)CCO2)nc1 — inhibition (HTR1D; radioligand binding; concentration not given, together with: [3H]5-CT): 20.2%
COCC(=O)N1CCc2cc(-c3csc(NC(=O)c4cc(OC)cc(OC)c4)n3)ccc21 — inhibition (phorbol ester receptor, mouse; radioligand binding; 10 µM): -4%
Cc1cc(C(=O)NCCNC(=O)c2cccc(COc3ccccc3C(N)=O)c2)n[nH]1 — inhibition (TNKS2; enzyme activity, inhibitor; 0.5 µM): 100%
C1CCC(OCCN2CCN(CCOC3CCCCC3)CC2)CC1 — translation activity (Trypanosoma cruzi; reporter mRNA translation, inhibitor, measured: Renilla luciferase mRNA; cell-free extract; concentration not given, test 1; baseline: positive over negative control): 110% and 118%
Cn1cc(-c2ccc(C(N)=O)cc2)cn1 — inhibition (Uridine nucleoside ribohydrolase; 19F NMR; 100 µM): 100%
Cn1sc(Nc2c(Cl)ccc3ncccc23)c(C#N)c1=O — inhibition (TNKS2; enzyme activity, inhibitor; 10 µM): 5%
C[Si]1(C[C@H](CN)CC(=O)O)CCCC1 — inhibition (alpha1 adrenergic receptor, rat; binding, radioligand binding; 70 µM, together with: [3H]prazosin): -4%
CN(C)C/C=C/C(=O)Nc1ccc2nc(NCCCCCN(C)C)nc(NCCCCCCN(C)C)c2c1 — inhibition (Histone-lysine N-methyltransferase PRDM9 (PRDM9, Homo sapiens, UniProt Q9NQV7); enzyme activity, inhibitor, radiometric; 50 µM): 84%
C[C@H]1CN(C(=O)c2cn(-c3ccnc(N)n3)c3cc(C#CC4(O)CCCCC4)ccc23)CCN1 — inhibition (ERN2; cell-free assay, TR-FRET; 1 µM): 2%

Some of these lines once more:
Cc1cc(OS(=O)(=O)Oc2ccccc2-c2ccccc2)cc(C(=O)NO)c1 — inhibition (HDAC6; enzyme activity, inhibitor, fluorescence; 10 µM): 40%
CN1CCN(Cc2ccc(-c3ccc(CO[C@H]4CCC[C@@H]4NC(=O)c4cc(-c5cnn(C)c5)cnc4N)cc3)cc2)CC1 — inhibition (ERN2; enzyme activity, inhibitor; 0.1 µM): 2%
c1ccc(OC[C@H]2CN(CCN3CCc4ccccc43)CCO2)nc1 — inhibition (HTR1D; radioligand binding; concentration not given, together with: [3H]5-CT): 20.2%
COCC(=O)N1CCc2cc(-c3csc(NC(=O)c4cc(OC)cc(OC)c4)n3)ccc21 — inhibition (phorbol ester receptor, mouse; radioligand binding; 10 µM): -4%
Cc1cc(C(=O)NCCNC(=O)c2cccc(COc3ccccc3C(N)=O)c2)n[nH]1 — inhibition (TNKS2; enzyme activity, inhibitor; 0.5 µM): 100%
C1CCC(OCCN2CCN(CCOC3CCCCC3)CC2)CC1 — translation activity (Trypanosoma cruzi; reporter mRNA translation, inhibitor, measured: Renilla luciferase mRNA; cell-free extract; concentration not given, test 1; baseline: positive over negative control): 110% and 118%
